{"data": "Published values collected from several papers", "note": "A part holds a random share of what one study measured. Positions count from the first letter of the parent shown."}
{"data": "Block 1", "target": "CCND1, cyclin fold, Cln2 fusion (human)", "method": "yeast growth competition, sequencing", "medium": "yeast", "setting": "weak parent motif", "reference": "not given", "reading": "higher = stronger binding", "starting sequence": "GMNC docking peptide (human); KNAKRNLSSEFAN; partner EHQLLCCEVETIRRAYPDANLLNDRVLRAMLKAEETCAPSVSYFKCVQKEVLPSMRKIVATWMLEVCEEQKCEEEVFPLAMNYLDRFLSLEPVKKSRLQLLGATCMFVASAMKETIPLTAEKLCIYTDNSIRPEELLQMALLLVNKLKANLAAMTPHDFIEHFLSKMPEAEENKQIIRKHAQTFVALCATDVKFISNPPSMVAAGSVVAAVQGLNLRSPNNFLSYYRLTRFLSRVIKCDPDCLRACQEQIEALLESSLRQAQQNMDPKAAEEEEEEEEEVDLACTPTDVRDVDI"}
{"Substitution": "KNAKRNLSSIFAN [E10I]", "normalised enrichment score": 0.064}
{"Substitution": "KNADRNLSSEFAN [K4D]", "normalised enrichment score": 0.057}
{"Substitution": "KNAKRNLSPEFAN [S9P]", "normalised enrichment score": 0.528}
{"Substitution": "KNAKRPLSSEFAN [N6P]", "normalised enrichment score": 0.266}
{"Substitution": "KNAKRNLSSENAN [F11N]", "normalised enrichment score": -0.342}
{"Substitution": "KNAKINLSSEFAN [R5I]", "normalised enrichment score": 0.214}
{"Substitution": "KNAKTNLSSEFAN [R5T]", "normalised enrichment score": -0.145}
{"Substitution": "KNAKRNLSSMFAN [E10M]", "normalised enrichment score": 0.349}
{"Substitution": "KNAKRNLSSEIAN [F11I]", "normalised enrichment score": -0.0398}
{"Substitution": "KNAWRNLSSEFAN [K4W]", "normalised enrichment score": 0.327}
{"Substitution": "KNASRNLSSEFAN [K4S]", "normalised enrichment score": 0.162}
{"Substitution": "KNATRNLSSEFAN [K4T]", "normalised enrichment score": 0.0725}
{"Substitution": "KNAYRNLSSEFAN [K4Y]", "normalised enrichment score": 0.533}
{"Substitution": "KNAKQNLSSEFAN [R5Q]", "normalised enrichment score": 0.05}
{"Substitution": "KNAKRNLSMEFAN [S9M]", "normalised enrichment score": 0.522}
{"Substitution": "KNAKRNLSSEFMN [A12M]", "normalised enrichment score": 0.347}
{"Substitution": "KNAKRQLSSEFAN [N6Q]", "normalised enrichment score": 0.17}
{"Substitution": "KNAGRNLSSEFAN [K4G]", "normalised enrichment score": 0.206}
{"Substitution": "KNAKRNLRSEFAN [S8R]", "normalised enrichment score": 0.207}
{"Substitution": "KNAKRGLSSEFAN [N6G]", "normalised enrichment score": 0.36}
{"Substitution": "KNAKRNLSTEFAN [S9T]", "normalised enrichment score": 0.859}
{"Substitution": "KNAKRNLSHEFAN [S9H]", "normalised enrichment score": 0.442}
{"Substitution": "KMAKRNLSSEFAN [N2M]", "normalised enrichment score": 0.34}
{"Substitution": "KNWKRNLSSEFAN [A3W]", "normalised enrichment score": 0.402}
{"data": "Block 2", "target": "Ras GTPase-activating protein-binding protein 1, full length (G3BP1, Homo sapiens, UniProt Q13283)", "method": "RNA Bind-n-Seq", "molecule type": "RNA", "medium": "in vitro", "concentration": "200 nM", "setting": "whole 134-nt RNA, ends assumed", "together with": "150 mM LiCl", "reference": "input library", "reading": "higher = stronger binding", "each molecule": "7-deaza-guanosine replaces G", "constant ends, left off below": "GGGAGUUCUACAGUCCGACGAUC … UGGAAUUCUCGGGUGUCAAGG", "chain of UniProt Q13283 (whole entry, looked up)": "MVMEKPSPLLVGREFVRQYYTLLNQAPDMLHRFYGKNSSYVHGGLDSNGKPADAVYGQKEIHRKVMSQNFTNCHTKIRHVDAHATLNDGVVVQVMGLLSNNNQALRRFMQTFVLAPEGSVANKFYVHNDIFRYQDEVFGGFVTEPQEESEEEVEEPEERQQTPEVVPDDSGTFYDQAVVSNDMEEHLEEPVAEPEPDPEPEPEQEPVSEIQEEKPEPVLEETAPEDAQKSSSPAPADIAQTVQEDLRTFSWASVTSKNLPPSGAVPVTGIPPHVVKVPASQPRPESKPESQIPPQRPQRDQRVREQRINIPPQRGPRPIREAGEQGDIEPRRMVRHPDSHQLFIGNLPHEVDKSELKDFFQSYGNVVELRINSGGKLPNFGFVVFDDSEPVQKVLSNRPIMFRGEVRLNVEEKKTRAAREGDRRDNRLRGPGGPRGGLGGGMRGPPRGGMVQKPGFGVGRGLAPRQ"}
{"Sequence": "UGGGAGGUGGAUUUUGUUUAUUUUUUUAGCUCAUUUCCAGGGGUGGGAAUUUUUUUUUAAUAUGUGUCCUGAAUAAAGUUGUUUUUGAAA", "log2 enrichment": 0.000299}
{"Sequence": "AGUCCUGUGCUACACAUCGUAUGUACCGAAUCGGGAAAAAGGGUUUUUGGGAAAGGGAAAGUAUUAUGUUACGCCGUUCGGAUCUGCACU", "log2 enrichment": -1.73}
{"Sequence": "UCACCUGUUUACAGUGAAUCAGACGUCCCAAUAGAUGUGGAGACGGUCACAUCAACGCCUAUGCCACUCUAUGACAAUCAGAAGGCACGC", "log2 enrichment": -1.5}
{"Sequence": "CCUGUGCUACACAUCGUAUGUACCGAAUCGGGUUUUUGGGUUUUUUUGGGAAAAAAAGGGAAAGUAUUAUGUUACGCCGUUCGGAUCUGC", "log2 enrichment": -0.229}
{"Sequence": "CAAGUCCUGUGCUACACAUCGUAUGUACCGAAUCGGAAAAAAAGGAAAAAGGAGGAAAGUAUUAUGUUACGCCGUUCGGAUCUGCACUUC", "log2 enrichment": -0.66}
{"Sequence": "UCCUGUGCUACACAUCGUAUGUACCGAAUCGGGUUUUUUUGGGAAAGGGUUUUUUUGGGAAAGUAUUAUGUUACGCCGUUCGGAUCUGCA", "log2 enrichment": -1.34}
{"Sequence": "UCCUGUGCUACACAUCGUAUGUACCGAAUCAAACCCCCAAACCCCCAAAUUUUUUUAAAAAAGUAUUAUGUUACGCCGUUCGGAUCUGCA", "log2 enrichment": 1.05}
{"Sequence": "AGUCCUGUGCUACACAUCGUAUGUACCGAAUCGGGGCCCCGGGGCCCCGGCCCCGGGAAAGUAUUAUGUUACGCCGUUCGGAUCUGCACU", "log2 enrichment": -0.358}
{"data": "Block 3", "target": "Centromere-binding protein 1, full length, His-tagged (CBF1, Saccharomyces cerevisiae, UniProt P17106, residues 1-351)", "method": "competition protein-binding microarray", "molecule type": "double-stranded DNA, one strand shown", "medium": "in vitro", "concentration": "2 µM", "setting": "whole 60-bp probe, lowest competitor level", "together with": "Pho4 competitor, 0.05 µM", "reading": "higher = stronger binding", "constant ends, left off below": "… GTCTTGATTCGCTTGACGCTGCTG", "chain of UniProt P17106 (whole entry, looked up)": "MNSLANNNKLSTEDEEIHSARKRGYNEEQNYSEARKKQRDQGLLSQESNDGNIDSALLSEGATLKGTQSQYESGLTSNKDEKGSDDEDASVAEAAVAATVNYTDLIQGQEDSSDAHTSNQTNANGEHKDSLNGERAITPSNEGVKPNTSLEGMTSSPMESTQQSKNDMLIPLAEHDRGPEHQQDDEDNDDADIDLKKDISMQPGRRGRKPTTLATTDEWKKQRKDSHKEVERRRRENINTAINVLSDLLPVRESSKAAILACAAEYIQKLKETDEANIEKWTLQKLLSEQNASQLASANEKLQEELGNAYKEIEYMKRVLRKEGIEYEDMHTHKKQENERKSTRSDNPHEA"}
{"Sequence": "CTTTCCCGATCTTGTCACTAAACTTTAGCACATTTG", "fluorescence intensity": "74.5 a.u."}
{"Sequence": "TGCGCAACAACTTGAACCGTGGGTGTATGTCTAGAA", "fluorescence intensity": "64.8 a.u."}
{"Sequence": "TCACAAGAATCAATTGTATTTTTCTAGACTCGCTAA", "fluorescence intensity": "89.6 a.u."}
{"Sequence": "CTAACGAAGGTTTGGCACGTGGGTGACAAGCCAAGT", "fluorescence intensity": "1120 a.u."}
{"Sequence": "GAAAGAGCGAAAATACTCGTGATGGAAACTCTTTTA", "fluorescence intensity": "223 a.u."}
{"Sequence": "GCCCGATCCTTTGGACACGTGCCGACAGGACTACTC", "fluorescence intensity": "2050 a.u."}
{"Sequence": "AAAGCGGTAATTTGTTGGGTGGGTGCAGATATCTAT", "fluorescence intensity": "81.4 a.u."}
{"Sequence": "CTTTCCCGATCTTGCTCAGTGGGTGTAGCACATTTG", "fluorescence intensity": "59.4 a.u."}
{"Sequence": "CATACCCAACCTTGGCCAGTGGGTGAAGATATTTGT", "fluorescence intensity": "65.4 a.u."}
{"Sequence": "AAATTACTAAGTTTTCACGTGTCATACCCCGTATGA", "fluorescence intensity": "1320 a.u."}
{"Sequence": "CGTCCTAGTGATTGTCACGCAACTTCCATGAGGAAG", "fluorescence intensity": "152 a.u."}
{"Sequence": "GATCTGGTCGTACGGCCCGTGCTTTCAGAATTGGTG", "fluorescence intensity": "94.6 a.u."}
{"Sequence": "ATAAGCTTTTAGAAACACGTGATGGAAGAACCAGAG", "fluorescence intensity": "4790 a.u."}
{"Sequence": "CTTTCCCGATCTTGATCTGTGGGTGTAGCACATTTG", "fluorescence intensity": "58.5 a.u."}
{"Sequence": "AAATTACTAAGTTGCAGGGTGGGTGACGCCGTATGA", "fluorescence intensity": "64.3 a.u."}
{"Sequence": "CTTCTGTAAATTTGTGGTGTGGGTGGACGCGCCCCG", "fluorescence intensity": "86.8 a.u."}
{"Sequence": "CATACCCAACCTTAACACGTGTTTTAAGATATTTGT", "fluorescence intensity": "1930 a.u."}
{"Sequence": "CATACCCAACCTTGTCACATAACTTAAGATATTTGT", "fluorescence intensity": "91.4 a.u."}
{"Sequence": "CCGGTTTTTATTCCTCCCGTGGTCGTTGTCTCTACC", "fluorescence intensity": "95.9 a.u."}
{"data": "Block 4", "target": "Histone acetyltransferase KAT6A, winged helix 1, GST fusion (KAT6A, Homo sapiens, UniProt Q92794, residues 1-85)", "method": "protein binding microarray", "molecule type": "double-stranded DNA, one strand shown", "medium": "in vitro", "concentration": "not given", "setting": "8-mer, flanks averaged, mean of 2 arrays, mostly near background", "reference": "not given", "reading": "higher = stronger binding", "Construct (chain)": "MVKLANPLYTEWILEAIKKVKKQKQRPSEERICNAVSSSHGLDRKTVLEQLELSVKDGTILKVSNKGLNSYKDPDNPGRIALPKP"}
{"Sequence": "AGGACCGC", "E-score": 0.324}
{"Sequence": "AAATTTAT", "E-score": -0.127}
{"Sequence": "AACAAACA", "E-score": -0.219}
{"Sequence": "CCTCTCAG", "E-score": -0.266}
{"Sequence": "CGAGTCCA", "E-score": -0.00853}
{"Sequence": "CATGAGCG", "E-score": 0.303}
{"Sequence": "AATCGGGT", "E-score": 0.0631}
{"Sequence": "ATCTCTGA", "E-score": -0.152}
{"Sequence": "CGACCTTC", "E-score": 0.04}
{"Sequence": "GAATCCGA", "E-score": 0.137}
{"Sequence": "AATAGCAG", "E-score": -0.239}
{"Sequence": "GGTCCAAA", "E-score": -0.147}
{"Sequence": "ATCGCGGC", "E-score": 0.427}
{"Sequence": "AGAAATCA", "E-score": -0.186}
{"Sequence": "CAAGCTCC", "E-score": -0.0866}
{"Sequence": "AACTCACG", "E-score": -0.0605}
{"note": "A few entries again (block 1):"}
{"Substitution": "KNAKRNLSSEFMN [A12M]", "normalised enrichment score": 0.347}
{"Substitution": "KNASRNLSSEFAN [K4S]", "normalised enrichment score": 0.162}
{"Substitution": "KNAKRNLSSENAN [F11N]", "normalised enrichment score": -0.342}
{"Substitution": "KNAKRNLRSEFAN [S8R]", "normalised enrichment score": 0.207}
{"Substitution": "KNWKRNLSSEFAN [A3W]", "normalised enrichment score": 0.402}
{"Substitution": "KNAKTNLSSEFAN [R5T]", "normalised enrichment score": -0.145}
{"Substitution": "KNAKRNLSHEFAN [S9H]", "normalised enrichment score": 0.442}
